Measured values of several laboratories.
Every numbered part comes from another study and shows a few of its results, in no order. Values joined by “and” are separate records of one study, mostly repeats; a detail may differ.

Study 1
Structure (SMILES): CCOC(=O)/C=C/CNCCCCN1c2cc(Cl)ccc2CCc2cnn(C)c21.O=C(O)/C=C\C(=O)O
Cell line: NCI-H292
Technique: CellTiter-Glo
Time: 72 h
Direction: higher = more viable cells
Endpoint: luminescence
50 µM: 53900 a.u. and 51700 a.u. and 57900 a.u.
0.05 µM: 4.13e+06 a.u. and 4.11e+06 a.u. and 4.08e+06 a.u.
5 µM: 813000 a.u. and 788000 a.u. and 807000 a.u.
0.005 µM: 4.19e+06 a.u. and 3.96e+06 a.u. and 4.14e+06 a.u.

Study 2
SMILES: CCOc1ccc2nc(Sc3nc(Nc4ccc(I)cc4)nc(N4CCOCC4)n3)sc2c1
Cell line: L444P/L444P Gaucher fibroblasts
Technique: 4-MUG hydrolysis in lysate
Time: 72 h
Relative to: vehicle
Endpoint: enzyme activity
0.1 µM: 103% and 99.8% and 99.4% and 95.5% and 101% and 100%
10 µM: 202% and 171% and 308% and 287% and 163% and 267%
1 µM: 115% and 107% and 106% and 121% and 117%

Mixed results
COCC1CC2C(CCC3(C)C(O)CCC23)c2ccc(O)cc21 (stereo not drawn) — log2 expression ratio (A549; DNA microarray, item: CCL22; concentration not given; relative to: untreated A549 cells): 0
Cc1nc(C)c(C=[N+]([O-])C(C)(C)C)nc1C — ATP content (primary cerebellar granule neurons, rat; 100 µM, 2 h, added: MPP+; relative to: control): 47.3% and 48.9% and 48%

Repeated from above (study 2):
1 µM: 115% and 107% and 106% and 121% and 117%
